Measurements of several laboratories.
“And” joins repeats or separate records; there may be more than shown. ± gives the spread as reported.

`O=C([O-])CN1CCN(CC(=O)[O-])CCN(CC(=O)NC[C@H]2CC[C@H](C(=O)N[C@H](Cc3cnc4ccccc4c3)C(=O)NCCCC[C@H](NC(=O)N[C@@H](CCC(=O)O)C(=O)O)C(=O)O)CC2)CCN(CC(=O)[O-])CC1.[64Cu+2]` has a tissue uptake of 2.4 %ID/g (ex vivo gamma counting; 22Rv1 tumour-bearing mice, blood; intravenous, 0.74 MBq, 1 h post-injection).
For `CC(C)c1noc(C2CCN(c3ncnc(Nc4ccc(OCC[18F])cc4)c3[N+](=O)[O-])CC2)n1`, the tissue uptake was 8.42 ± 1.18 %ID/g (ex vivo biodistribution after PET; C57BL/J male mice, kidney; 60 min).
With `O=C(O)CCCOc1ccc([18F])cc1-c1cc(-c2ccccc2C(F)(F)F)n(-c2ccccc2)n1` the tissue uptake was 4.38 ± 0.59 %ID/g (mice, large intestine; intravenous, 360 min).
With `CCCC[C@H](NC(=O)COCCOCCNC(=O)CN1CCN(CC(=O)O)CCN(CC(=O)O)CC1)C(=O)N[C@H]1CC(=O)NCCCC[C@@H](C(N)=O)NC(=O)[C@H](Cc2c[nH]c3ccccc23)NC(=O)[C@H](CCCNC(=N)N)NC(=O)[C@@H](Cc2ccccc2)NC(=O)[C@H](Cc2c[nH]cn2)NC1=O` [fluorine-18 labelled] the tissue uptake was 0.44 %ID/g (C57 mice inflamed muscle, inflamed muscle; intravenous, 1 h, together with: NDP-MSH 10 µg co-injected).
`C[N+](C)(CCOCCOCCOCCNC(=S)Nc1ccc(C[C@H]2CN(CC(=O)[O-])CCN(CC(=O)[O-])CCN2CC(=O)[O-])cc1)C[c-]1cccc1.[64Cu+2].[Fe+2].c1cc[cH-]c1` gave a tissue uptake of 0.4 ± 0.1 %ID/g (refers to: liver; nude mice, BxPC-3 tumour; 8 h, pretargeting, 72 h lag).
With `COc1ccc(Nc2nc(Nc3ccc(OCCOCC[18F])cc3)ncc2Br)cc1` the tissue uptake was 5.67 ± 0.12 %ID/g (ICR mice, S180 tumour-bearing, kidney; intravenous, 370 kBq, 5 min).
`COc1ccc2c(c1)C(C)(C)C(/C=C/C1=C(Oc3ccc(C(=O)NCCCCOc4cc(CN(Cc5ccccn5)Cc5ccccn5)cc(CN(Cc5ccccn5)Cc5ccccn5)c4)cc3)C(=C/C=C3/N(CCCCS(=O)(=O)[O-])c4ccc(OC)cc4C3(C)C)CCC1)=[N+]2CCCCS(=O)(=O)[O-].O=[N+]([O-])[O-].O=[N+]([O-])[O-].[99Tc+].[C-]#[O+].[C-]#[O+].[C-]#[O+].[Zn+2]` has a tissue uptake of 7.04 %ID/g and 12 %ID/g and 5.4 %ID/g and 37.9 %ID/g (BALB/c mice, healthy, gall bladder; 12 h post-injection).
`CC[C@H](C)[C@H](NC(=O)C[C@H](NC(=O)CN1CCN2CCN(CC1)CC(=O)[O][Al]([18F])[O]C(=O)C2)C(=O)O)C(=O)N[C@H]1CCc2cccc3c2N(C1=O)[C@H](C(=O)NCc1cn[nH]n1)C3` gave a tissue uptake of 0.47 ± 0.11 %ID/g (C57BL/6J mice, MC-38 tumour, anti-PD-1 treated, spleen; 0.5 h).
The tissue uptake of `CC(C)C[C@H](NC(=O)[C@@H](CCCCNC(=O)[C@@H](Cc1ccccc1)NC(=O)CCCCCCCNC(=O)CN1CCN(CC(=O)O)CCN(CC(=O)O)CCN(CC(=O)O)CC1)NC(=O)[C@H](Cc1ccc(O)cc1)NC(=O)[C@H](CO)NC(=O)[C@H](Cc1c[nH]c2ccccc12)NC(=O)[C@H](Cc1c[nH]cn1)NC(=O)[C@@H]1CCC(=O)N1)C(=O)N[C@@H](CCCNC(=N)N)C(=O)N1CCC[C@H]1C(=O)NCC(N)=O` [indium-111 labelled] is reported as 0.16 ± 0.08 %ID/g (biodistribution; male athymic nude mice, DU-145 prostate cancer xenograft, spleen; intravenous, 0.037 MBq, 4 h post-injection).
With `N[C@H](CSC(F)(F)[18F])C(=O)O` the tissue uptake was 1.63 ± 0.11 %ID/g (Kunming mice, turpentine inflammation, inflamed muscle; intravenous, 0.74 MBq, 60 min).
The tissue uptake of `CN(O)C(=O)CCC(=O)NCCCN(CCCCN(CCCNC(=O)CCC(=O)N(C)O)C(=O)CCC(=O)N(C)O)C(=O)CCC(=O)N(C)O.[89Zr]` is reported as 1.24 ± 0.23 %ID/g (gamma counting; healthy Balb/c mice, plasma; intravenous, 1 h, 89Zr-labelled complex).
The tissue uptake of `Cc1nc(N)nc2c1C(=O)N[C@@H](c1ccc(F)cc1-c1cccc(OCC[18F])n1)C2` is reported as 1 ± 0.02 %ID (ex vivo biodistribution; C57BL/6 mice, pancreas; intravenous, 1 MBq, 30 min).
For `COc1ccc(Nc2nc(Nc3ccc(OCCOCCOCC[18F])cc3)ncc2Br)cc1`, the tissue uptake was 3.49 ± 0.12 %ID/g (ICR mice, S180 tumour-bearing, kidney; intravenous, 370 kBq, 15 min).
The tissue uptake of `N#C[C@@H]1CCCN1C(=O)CNC(=O)c1ccnc2ccc(OCCCN3CCN(C(=O)CCc4ccc5c(c4)CN4CCN(Cc6cc(CCC(=O)O)ccc6O)CC(=O)[O][Al-]([18F])([O]C(=O)C4)[O]5)CC3)cc12` (stereo partly drawn) is reported as 11 ± 3.77 %ID/g (BALB/c nude mice, U-87 MG xenograft, intestine; 1 h, blocking, together with: DOTA-FAPI-04 40 nmol/mouse co-injected).
`CC(=O)N([O-])CCCCCNC(=O)CCC(=O)N([O-])CCCCCNC(=O)CCC(=O)N([O-])CCCCCN.[89Zr+4]` gave a tissue uptake of 0.7 ± 0.82 %ID/g (gamma counting; healthy Balb/c mice, adrenal; intravenous, 4 h, 89Zr-labelled complex).
The tissue uptake of `N#C[C@@H]1CCCN1C(=O)CNC(=O)c1ccnc2ccc(OCCCN3CCN(C(=O)CCc4ccc(O)c(CN5CCN6CC(=O)[O][Al-]([18F])([O]C(=O)C5)[O]c5ccc(CCC(=O)N7CCN(CCCOc8ccc9nccc(C(=O)NCC(=O)N%10CCC[C@H]%10C#N)c9c8)CC7)cc5C6)c4)CC3)cc12` (stereo partly drawn) is reported as 4.64 ± 0.49 %ID/g (BALB/c nude mice, U-87 MG xenograft, kidney; 1 h, blocking, together with: DOTA-FAPI-04 40 nmol/mouse co-injected).
For `O=C(NCC1OC2CCC=CCCC2O1)c1ccc([18F])nc1` (stereo not drawn), the tissue uptake was 3 ± 0.5 %ID/g (healthy female BALB/c nude mice, large intestine; intravenous, 7.4 MBq per mouse, 5 min).
`CCCC[C@H](NC(=O)CCCCCCCNC(=O)CN1CCN(CC(=O)O)CCN(CC(=O)O)CC1)C(=O)N[C@H]1CC(=O)NCCCC[C@@H](C(N)=O)NC(=O)[C@H](Cc2c[nH]c3ccccc23)NC(=O)[C@H](CCCNC(=N)N)NC(=O)[C@@H](Cc2ccccc2)NC(=O)[C@H](Cc2c[nH]cn2)NC1=O` [fluorine-18 labelled] has a tissue uptake of 15.5 ± 1.51 %ID/g (C57 mice B16-F10 melanoma, tumor; intravenous, 0.37 MBq, 0.5 h).
With `Cc1cc(C)n(CCN(CCN)CCCCCCNC(=O)[C@@H](N)Cc2c[nH]cn2)n1.[99Tc+].[C-]#[O+].[C-]#[O+].[C-]#[O+]` the tissue uptake was 15.5 ± 0.52 %IA/g (BALB/c nude mice, A549 xenograft, kidney; intravenous, 15 min).
`O=C(NCC1OC2CCC=CCCC2O1)c1ccc(COCCOCCOCC[18F])cc1` (stereo not drawn) has a tissue uptake of 2.5 ± 0.1 %ID/g (healthy female BALB/c nude mice, pancreas; intravenous, 7.4 MBq per mouse, 15 min).
For `CCCC[C@H](NC(=O)CNC(=O)CNC(=O)[C@H](CCCCNC(=O)[C@H](CC(=O)O)NC(=O)C(C)c1ccc(CC(C)C)cc1)NC(=O)CN1CCN(CC(=O)O)CCN(CC(=O)O)CCN(CC(=O)O)CC1)C(=O)N[C@H]1CC(=O)NCCCC[C@@H](C(N)=O)NC(=O)[C@H](Cc2c[nH]c3ccccc23)NC(=O)[C@H](CCCNC(=N)N)NC(=O)[C@@H](Cc2ccccc2)NC(=O)[C@H](Cc2c[nH]cn2)NC1=O` (stereo partly drawn) [lutetium-177 labelled], the tissue uptake was 0.39 ± 0.13 %ID/g (C57 mice, tumour-bearing, heart; 2 h).

Excerpt of the above:
`C[N+](C)(CCOCCOCCOCCNC(=S)Nc1ccc(C[C@H]2CN(CC(=O)[O-])CCN(CC(=O)[O-])CCN2CC(=O)[O-])cc1)C[c-]1cccc1.[64Cu+2].[Fe+2].c1cc[cH-]c1` gave a tissue uptake of 0.4 ± 0.1 %ID/g (refers to: liver; nude mice, BxPC-3 tumour; 8 h, pretargeting, 72 h lag).
The tissue uptake of `N#C[C@@H]1CCCN1C(=O)CNC(=O)c1ccnc2ccc(OCCCN3CCN(C(=O)CCc4ccc5c(c4)CN4CCN(Cc6cc(CCC(=O)O)ccc6O)CC(=O)[O][Al-]([18F])([O]C(=O)C4)[O]5)CC3)cc12` (stereo partly drawn) is reported as 11 ± 3.77 %ID/g (BALB/c nude mice, U-87 MG xenograft, intestine; 1 h, blocking, together with: DOTA-FAPI-04 40 nmol/mouse co-injected).
With `O=C(O)CCCOc1ccc([18F])cc1-c1cc(-c2ccccc2C(F)(F)F)n(-c2ccccc2)n1` the tissue uptake was 4.38 ± 0.59 %ID/g (mice, large intestine; intravenous, 360 min).
